# Measurements collected from several papers.
# Numbered parts are unrelated; each lists some results of a single study. Changes are numbered by the printed parent chain.
# Sequence of UniProt Q16566 (whole entry, looked up): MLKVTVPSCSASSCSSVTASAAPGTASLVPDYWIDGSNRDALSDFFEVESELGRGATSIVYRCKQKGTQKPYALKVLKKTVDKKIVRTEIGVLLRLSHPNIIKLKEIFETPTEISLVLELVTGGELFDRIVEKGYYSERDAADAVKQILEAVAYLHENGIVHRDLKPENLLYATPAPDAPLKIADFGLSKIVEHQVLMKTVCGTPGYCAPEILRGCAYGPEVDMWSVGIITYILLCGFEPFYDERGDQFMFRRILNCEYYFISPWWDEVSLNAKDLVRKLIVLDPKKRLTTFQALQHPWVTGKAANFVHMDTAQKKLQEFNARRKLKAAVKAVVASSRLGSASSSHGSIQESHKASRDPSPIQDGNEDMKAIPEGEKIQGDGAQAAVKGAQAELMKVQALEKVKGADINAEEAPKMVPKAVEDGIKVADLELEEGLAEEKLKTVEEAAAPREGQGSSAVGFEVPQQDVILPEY
# Sequence of UniProt P60842 (whole entry, looked up): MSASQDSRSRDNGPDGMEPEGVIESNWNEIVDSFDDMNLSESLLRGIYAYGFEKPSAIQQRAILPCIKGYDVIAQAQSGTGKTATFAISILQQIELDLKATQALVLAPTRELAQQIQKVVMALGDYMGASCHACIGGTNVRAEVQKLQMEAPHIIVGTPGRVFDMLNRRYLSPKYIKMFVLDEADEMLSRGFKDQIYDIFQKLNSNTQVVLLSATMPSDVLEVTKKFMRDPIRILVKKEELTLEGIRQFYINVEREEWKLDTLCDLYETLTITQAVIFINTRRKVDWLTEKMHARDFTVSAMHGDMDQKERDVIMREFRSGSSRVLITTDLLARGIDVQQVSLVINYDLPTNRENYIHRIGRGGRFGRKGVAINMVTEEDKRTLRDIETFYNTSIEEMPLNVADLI

# Study 1 — target: tungstate, free oxyanion; method: microfluidic competitive inhibition; matrix: in vitro, cell-free expressed; concentration: not given; reading: lower = stronger binding
# Notes: derived from inhibition constants, unchanged parent 2230 nM
# Parent: PafA, mature enzyme, eGFP fusion (Elizabethkingia meningoseptica, UniProt Q9KJX5); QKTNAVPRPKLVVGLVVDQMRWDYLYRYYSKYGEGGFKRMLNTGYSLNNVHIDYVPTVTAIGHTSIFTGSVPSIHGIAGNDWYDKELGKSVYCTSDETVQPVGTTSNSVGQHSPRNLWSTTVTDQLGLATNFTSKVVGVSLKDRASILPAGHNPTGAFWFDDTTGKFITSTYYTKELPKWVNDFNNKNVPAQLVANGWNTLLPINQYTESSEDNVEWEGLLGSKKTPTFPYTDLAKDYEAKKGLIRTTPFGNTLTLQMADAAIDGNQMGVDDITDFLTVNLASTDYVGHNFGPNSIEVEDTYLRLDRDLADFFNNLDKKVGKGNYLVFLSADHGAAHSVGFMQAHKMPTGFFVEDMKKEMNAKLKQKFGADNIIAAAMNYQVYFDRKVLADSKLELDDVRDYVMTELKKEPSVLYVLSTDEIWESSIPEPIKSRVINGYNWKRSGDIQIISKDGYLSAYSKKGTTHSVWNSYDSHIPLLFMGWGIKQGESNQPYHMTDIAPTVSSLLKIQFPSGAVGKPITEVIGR
Change,oxyanion analog dissociation constant
S451G,2.2 µM
A157V,2.07 µM
S170G,967 nM
G243A,2.13 µM
F276V,1.74 µM
Q206V,2.45 µM
F229V,2.81 µM
T247G,1.73 µM

# Study 2 — observed: binding; method: phage display NGS; form: peptide; concentration: concentration not given; notes: normalized abundance; baseline: input library
# Target: UDP-N-acetylglucosamine--peptide N-acetylglucosaminyltransferase 110 kDa subunit (OGT, Homo sapiens, UniProt O15294)
# Sequence of UniProt O15294 (whole entry, looked up): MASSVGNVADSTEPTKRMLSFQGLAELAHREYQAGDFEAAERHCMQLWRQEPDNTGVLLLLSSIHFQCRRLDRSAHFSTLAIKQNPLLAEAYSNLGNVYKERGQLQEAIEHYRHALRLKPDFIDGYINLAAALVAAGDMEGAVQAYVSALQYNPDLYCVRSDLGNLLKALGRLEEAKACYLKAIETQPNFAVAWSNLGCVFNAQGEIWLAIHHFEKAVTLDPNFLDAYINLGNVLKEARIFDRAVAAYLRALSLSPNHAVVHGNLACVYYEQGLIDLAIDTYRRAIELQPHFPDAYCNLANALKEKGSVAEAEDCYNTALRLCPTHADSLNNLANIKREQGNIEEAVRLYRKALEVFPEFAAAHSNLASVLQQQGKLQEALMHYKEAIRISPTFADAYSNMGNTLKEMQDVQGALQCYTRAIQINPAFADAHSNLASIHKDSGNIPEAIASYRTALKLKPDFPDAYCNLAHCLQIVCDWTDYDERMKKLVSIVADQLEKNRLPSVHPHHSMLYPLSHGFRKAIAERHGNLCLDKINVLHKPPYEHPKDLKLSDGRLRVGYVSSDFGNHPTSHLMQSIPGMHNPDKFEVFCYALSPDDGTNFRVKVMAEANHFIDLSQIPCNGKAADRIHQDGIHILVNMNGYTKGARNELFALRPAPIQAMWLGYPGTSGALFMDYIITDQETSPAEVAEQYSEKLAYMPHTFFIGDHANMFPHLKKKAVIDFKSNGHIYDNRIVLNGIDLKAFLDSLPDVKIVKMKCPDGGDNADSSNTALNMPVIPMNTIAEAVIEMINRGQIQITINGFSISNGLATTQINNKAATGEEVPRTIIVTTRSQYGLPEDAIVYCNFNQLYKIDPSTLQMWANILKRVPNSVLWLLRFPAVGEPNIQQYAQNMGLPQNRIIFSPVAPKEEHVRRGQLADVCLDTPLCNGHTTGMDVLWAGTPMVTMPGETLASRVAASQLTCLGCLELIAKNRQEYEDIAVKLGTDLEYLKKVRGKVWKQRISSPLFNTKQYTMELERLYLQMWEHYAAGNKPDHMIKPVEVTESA
Molecule,enrichment fold change
HSWQHHHIMYEVGEG,10
ETNQYLPTYQIMYQF,66.3
TMKHRPATAWGIHHH,17.5
QYLHPHHHFAGMTG,4.82
NFLPFYAIQTFNNAT,4.78
KQVAVSVPPKYQIYV,5.71
QELFSHRMRFEQHHH,69
EPRHLYHIHQDHRQT,6.49

# Mixed results
SMILES,tested on,assay,system,conditions,how to read,measurement,result
CCC(=O)N[C@@H]1CC[C@H](C(=O)N(C)c2ccc(-c3nc4ccccc4o3)cc2)C1,"Cyclin-dependent kinase 2 homolog (CRK2, Plasmodium falciparum, UniProt P61075)","cell-free assay, competition with immobilised ligand",,1 µM,,remaining binding,100%
COc1ccc([C@@]23Oc4cc(OC)cc(OC)c4[C@]2(O)[C@@H](O)C[C@H]3c2ccccc2)cc1,"Eukaryotic initiation factor 4A-I (EIF4A1, Homo sapiens, UniProt P60842)","RNA clamping, fluorescence polarization",,"concentration not given, added: FAM-labelled poly r(AG)8 RNA",higher = more clamping,fluorescence polarization change,25.6 mP
CCn1cnc2c(Nc3cccc(Cl)c3)nc(N[C@H]3CCCC[C@H]3N)nc21,"Calcium/calmodulin-dependent protein kinase type IV (CAMK4, Homo sapiens, UniProt Q16566)","enzyme activity, inhibitor",,0.5 µM,baseline: control,remaining activity,103%
O=C1CCC(N2Cc3c(ccc4c3OCC43CCN(Cc4ccccc4)CC3)C2=O)C(=O)N1 (centres unmarked),,,"male CD-1 mouse, plasma","oral, 3 mg/kg",,bioavailability,108%

# Repeated from above (study 1):
Change,oxyanion analog dissociation constant
A157V,2.07 µM
S170G,967 nM
G243A,2.13 µM
